Assay results pooled from the literature.
Parts stem from different laboratories: compare values within a part only.
Chain of UniProt P54753 (whole entry, looked up): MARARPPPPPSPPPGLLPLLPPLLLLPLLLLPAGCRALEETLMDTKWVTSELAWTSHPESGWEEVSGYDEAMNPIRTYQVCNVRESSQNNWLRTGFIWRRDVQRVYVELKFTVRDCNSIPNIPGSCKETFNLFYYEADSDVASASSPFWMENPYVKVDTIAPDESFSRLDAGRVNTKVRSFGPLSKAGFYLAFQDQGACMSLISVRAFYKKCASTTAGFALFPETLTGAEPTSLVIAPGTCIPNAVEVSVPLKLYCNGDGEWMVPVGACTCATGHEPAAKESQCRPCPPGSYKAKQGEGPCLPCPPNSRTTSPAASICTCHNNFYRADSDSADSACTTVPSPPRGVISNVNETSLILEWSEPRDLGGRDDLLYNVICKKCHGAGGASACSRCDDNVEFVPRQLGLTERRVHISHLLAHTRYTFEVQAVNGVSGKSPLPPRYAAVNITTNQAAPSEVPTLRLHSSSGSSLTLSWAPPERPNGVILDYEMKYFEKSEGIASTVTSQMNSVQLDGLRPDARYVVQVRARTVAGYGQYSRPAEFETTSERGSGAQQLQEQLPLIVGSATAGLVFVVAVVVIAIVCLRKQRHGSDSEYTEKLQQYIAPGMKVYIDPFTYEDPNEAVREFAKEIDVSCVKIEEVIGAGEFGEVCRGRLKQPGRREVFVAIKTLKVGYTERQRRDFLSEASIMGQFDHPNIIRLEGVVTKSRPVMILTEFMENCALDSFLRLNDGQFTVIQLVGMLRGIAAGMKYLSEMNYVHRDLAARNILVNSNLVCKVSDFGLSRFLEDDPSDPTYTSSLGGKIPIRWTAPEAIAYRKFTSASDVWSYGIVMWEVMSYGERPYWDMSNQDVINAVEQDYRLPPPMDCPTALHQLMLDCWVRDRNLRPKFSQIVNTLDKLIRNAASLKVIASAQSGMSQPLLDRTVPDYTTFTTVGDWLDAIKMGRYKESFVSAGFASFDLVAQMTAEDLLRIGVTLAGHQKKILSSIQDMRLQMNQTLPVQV
Chain of UniProt Q16832 (whole entry, looked up): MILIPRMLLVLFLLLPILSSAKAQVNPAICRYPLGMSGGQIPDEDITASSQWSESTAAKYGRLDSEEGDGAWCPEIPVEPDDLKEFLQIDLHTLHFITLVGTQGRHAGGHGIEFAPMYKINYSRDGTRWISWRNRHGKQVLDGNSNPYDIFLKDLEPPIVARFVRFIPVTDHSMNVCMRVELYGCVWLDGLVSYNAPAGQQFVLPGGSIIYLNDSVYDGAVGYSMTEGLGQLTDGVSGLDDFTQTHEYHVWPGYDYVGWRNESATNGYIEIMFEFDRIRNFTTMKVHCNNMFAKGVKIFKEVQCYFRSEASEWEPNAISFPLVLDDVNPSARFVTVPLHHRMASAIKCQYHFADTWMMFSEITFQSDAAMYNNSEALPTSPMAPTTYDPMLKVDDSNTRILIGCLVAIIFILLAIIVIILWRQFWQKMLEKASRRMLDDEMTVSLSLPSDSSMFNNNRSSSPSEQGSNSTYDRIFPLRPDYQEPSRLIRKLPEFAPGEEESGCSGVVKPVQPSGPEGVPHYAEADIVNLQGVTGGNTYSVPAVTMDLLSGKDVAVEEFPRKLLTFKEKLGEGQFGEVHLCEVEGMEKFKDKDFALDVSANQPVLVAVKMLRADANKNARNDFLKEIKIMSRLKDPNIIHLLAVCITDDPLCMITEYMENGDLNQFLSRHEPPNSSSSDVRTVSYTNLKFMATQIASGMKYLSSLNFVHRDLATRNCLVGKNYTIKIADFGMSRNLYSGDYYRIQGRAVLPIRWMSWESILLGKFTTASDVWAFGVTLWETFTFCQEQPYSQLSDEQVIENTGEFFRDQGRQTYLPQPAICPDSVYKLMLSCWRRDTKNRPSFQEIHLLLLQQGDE
Chain of UniProt Q15759 (whole entry, looked up): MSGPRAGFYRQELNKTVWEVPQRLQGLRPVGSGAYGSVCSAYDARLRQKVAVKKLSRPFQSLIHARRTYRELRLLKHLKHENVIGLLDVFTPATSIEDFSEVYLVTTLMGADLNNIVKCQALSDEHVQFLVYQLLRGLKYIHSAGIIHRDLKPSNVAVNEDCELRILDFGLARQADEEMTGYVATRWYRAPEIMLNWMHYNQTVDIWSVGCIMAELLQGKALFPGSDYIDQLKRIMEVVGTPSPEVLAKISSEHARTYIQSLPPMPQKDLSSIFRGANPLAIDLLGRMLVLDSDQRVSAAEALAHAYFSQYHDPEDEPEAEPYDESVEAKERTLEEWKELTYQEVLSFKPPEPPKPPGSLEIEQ
Chain of UniProt P49761 (whole entry, looked up): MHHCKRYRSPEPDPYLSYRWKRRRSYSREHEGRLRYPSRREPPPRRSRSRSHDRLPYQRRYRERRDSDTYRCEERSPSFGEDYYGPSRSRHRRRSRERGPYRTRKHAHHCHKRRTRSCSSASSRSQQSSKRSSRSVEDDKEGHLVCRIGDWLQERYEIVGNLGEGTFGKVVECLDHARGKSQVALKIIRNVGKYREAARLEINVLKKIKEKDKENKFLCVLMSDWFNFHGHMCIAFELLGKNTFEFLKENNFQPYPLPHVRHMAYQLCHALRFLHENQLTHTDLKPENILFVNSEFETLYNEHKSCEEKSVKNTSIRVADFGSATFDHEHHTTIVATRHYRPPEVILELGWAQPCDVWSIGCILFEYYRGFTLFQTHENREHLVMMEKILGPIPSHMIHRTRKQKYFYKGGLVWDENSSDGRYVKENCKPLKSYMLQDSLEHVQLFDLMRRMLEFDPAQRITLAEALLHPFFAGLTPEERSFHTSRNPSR
Chain of UniProt P35968 (whole entry, looked up): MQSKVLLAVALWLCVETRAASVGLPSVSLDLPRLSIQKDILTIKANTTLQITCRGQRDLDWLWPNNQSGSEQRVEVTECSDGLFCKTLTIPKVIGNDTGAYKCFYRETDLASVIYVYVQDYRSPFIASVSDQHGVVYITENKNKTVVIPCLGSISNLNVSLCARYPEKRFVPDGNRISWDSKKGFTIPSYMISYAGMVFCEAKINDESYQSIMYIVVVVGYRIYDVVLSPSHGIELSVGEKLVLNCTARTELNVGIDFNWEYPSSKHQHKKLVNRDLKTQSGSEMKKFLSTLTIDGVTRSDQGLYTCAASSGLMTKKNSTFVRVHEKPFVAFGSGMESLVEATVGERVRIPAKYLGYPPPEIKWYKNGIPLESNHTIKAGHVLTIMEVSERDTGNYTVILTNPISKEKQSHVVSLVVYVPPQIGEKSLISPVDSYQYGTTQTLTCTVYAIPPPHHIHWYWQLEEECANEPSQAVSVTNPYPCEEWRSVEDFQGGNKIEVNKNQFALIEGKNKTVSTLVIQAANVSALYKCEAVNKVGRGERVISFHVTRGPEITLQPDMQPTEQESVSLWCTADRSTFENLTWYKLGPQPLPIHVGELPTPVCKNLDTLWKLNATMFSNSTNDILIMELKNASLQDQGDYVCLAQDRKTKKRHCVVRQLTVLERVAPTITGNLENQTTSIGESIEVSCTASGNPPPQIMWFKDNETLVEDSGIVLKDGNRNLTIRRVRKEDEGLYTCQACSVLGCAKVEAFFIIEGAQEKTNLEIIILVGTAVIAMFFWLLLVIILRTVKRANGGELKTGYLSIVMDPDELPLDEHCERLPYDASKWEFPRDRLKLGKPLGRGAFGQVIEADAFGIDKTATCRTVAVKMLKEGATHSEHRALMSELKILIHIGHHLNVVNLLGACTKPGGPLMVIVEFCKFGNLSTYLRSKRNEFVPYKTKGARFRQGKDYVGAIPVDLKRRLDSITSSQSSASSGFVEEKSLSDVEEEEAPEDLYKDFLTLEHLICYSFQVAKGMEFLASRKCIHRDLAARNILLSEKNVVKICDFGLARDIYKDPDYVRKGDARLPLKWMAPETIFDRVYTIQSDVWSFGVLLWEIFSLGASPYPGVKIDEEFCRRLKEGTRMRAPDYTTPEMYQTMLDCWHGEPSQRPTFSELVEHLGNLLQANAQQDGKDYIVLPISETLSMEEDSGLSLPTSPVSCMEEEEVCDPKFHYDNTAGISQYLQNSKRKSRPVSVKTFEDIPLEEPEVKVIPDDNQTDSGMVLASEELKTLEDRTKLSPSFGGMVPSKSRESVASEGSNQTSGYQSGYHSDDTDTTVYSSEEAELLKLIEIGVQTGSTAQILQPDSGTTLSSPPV
Chain of UniProt P31751 (whole entry, looked up): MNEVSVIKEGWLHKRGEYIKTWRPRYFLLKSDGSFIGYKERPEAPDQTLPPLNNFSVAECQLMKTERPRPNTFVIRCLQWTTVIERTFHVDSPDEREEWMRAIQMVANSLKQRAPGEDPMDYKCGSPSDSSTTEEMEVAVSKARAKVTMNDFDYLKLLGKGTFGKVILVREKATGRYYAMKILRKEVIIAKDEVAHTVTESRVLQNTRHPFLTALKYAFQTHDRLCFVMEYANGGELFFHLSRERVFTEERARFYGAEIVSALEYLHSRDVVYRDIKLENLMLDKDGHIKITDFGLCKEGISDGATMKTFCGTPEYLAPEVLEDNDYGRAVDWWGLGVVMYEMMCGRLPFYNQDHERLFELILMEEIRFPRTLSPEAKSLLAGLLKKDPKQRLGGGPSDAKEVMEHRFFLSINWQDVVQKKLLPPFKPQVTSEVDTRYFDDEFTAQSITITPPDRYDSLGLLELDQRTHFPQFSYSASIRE

Study 1
SMILES: COc1cc2ncnc(N3CCN(C(=O)Nc4ccc(Oc5ccccc5)cc4)CC3)c2cc1OC
Effect on: enzyme activity
Mode: inhibitor
Tested at: 0.5 µM
Reference: control
Measurement: remaining activity
target = DDR2 (Homo sapiens, UniProt Q16832); value = 95.1%
target = MAPK11 (Homo sapiens, UniProt Q15759); value = 99.6%
target = CDC42BPB (Homo sapiens, UniProt Q9Y5S2); value = 98.3%
target = MET (Homo sapiens, UniProt P08581); value = 107%
target = MINK1 (Homo sapiens, UniProt Q8N4C8); value = 99.6%
target = PAK3 (Homo sapiens, UniProt O75914); value = 98.1%
target = AKT2 (Homo sapiens, UniProt P31751); value = 87.6%
target = MARK4 (Homo sapiens, UniProt Q96L34); value = 76.5%
target = RPS6KA4 (Homo sapiens, UniProt O75676); value = 96.2%
target = CLK3 (Homo sapiens, UniProt P49761); value = 88.9%
target = KDR (Homo sapiens, UniProt P35968); value = 82.7%
target = MARK2 (Homo sapiens, UniProt Q7KZI7); value = 97.4%
target = PNCK (Homo sapiens, UniProt Q6P2M8); value = 94.3%
target = GRK4 (Homo sapiens, UniProt P32298); value = 94.7%
target = NEK3 (Homo sapiens, UniProt P51956); value = 100%

Study 2
Host: mouse
Matrix: microsomes or S9
Tested at: 2 µM
Time: 0.5 h
Measurement: remaining compound
SMILES = COc1cc(=O)[nH]cc1C(=O)N1CCCC(c2cnn(C)c2)C1 (centres unmarked); value = 69.8%
SMILES = Cn1cnc(S(=O)(=O)N2CCC(Oc3nccnc3C#N)C2)c1 (centres unmarked); value = 90.1%
SMILES = CC(C)(C)OC(=O)NC(CC(=O)N1CCCCCN1C(=O)c1cccc(C#N)c1)Cc1ccccc1F (centres unmarked); value = 35.6%
SMILES = COc1cc(OC)nc(OC(C(=O)N2CCOCC2)C(C)C)n1 (centres unmarked); value = 87.3%
SMILES = O=C(c1ccco1)N1CCN(C(=O)c2ccc(C[S+]([O-])Cc3ccccc3Cl)o2)CC1 (centres unmarked); value = 4.84%
SMILES = CN1CCN(C(=O)CCn2c(-c3ccccc3)cc3ccccc32)CC1; value = 3.54%
SMILES = c1csc(COc2ccc(CNn3cnnc3)cc2)c1; value = 56%

Study 3
Target: Calcium/calmodulin-dependent protein kinase type II subunit alpha (CAMK2A, Homo sapiens, UniProt Q9UQM7)
Chain of UniProt Q9UQM7 (whole entry, looked up): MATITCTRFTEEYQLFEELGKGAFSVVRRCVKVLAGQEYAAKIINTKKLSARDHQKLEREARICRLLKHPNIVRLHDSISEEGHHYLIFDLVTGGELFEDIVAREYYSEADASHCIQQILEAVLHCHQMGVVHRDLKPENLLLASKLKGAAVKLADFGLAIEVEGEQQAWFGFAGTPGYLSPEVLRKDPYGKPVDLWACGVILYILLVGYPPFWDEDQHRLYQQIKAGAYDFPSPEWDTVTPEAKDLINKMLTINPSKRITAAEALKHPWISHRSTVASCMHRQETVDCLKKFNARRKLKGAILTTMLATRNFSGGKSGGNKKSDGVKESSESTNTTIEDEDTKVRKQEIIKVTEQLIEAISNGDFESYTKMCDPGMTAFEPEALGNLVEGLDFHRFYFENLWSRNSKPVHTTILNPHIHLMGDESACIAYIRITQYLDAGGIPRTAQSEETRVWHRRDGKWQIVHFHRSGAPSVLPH
Effect on: enzyme activity
Mode: inhibitor
Tested at: 10 µM
Measurement: inhibition
SMILES = CNCC(=O)OCc1cccnc1N(C)C(=O)OC(C)[n+]1cnn(C[C@](O)(c2cc(F)ccc2F)[C@@H](C)c2nc(-c3ccc(C#N)cc3)cs2)c1 (some centres unmarked); value = -4%
SMILES = Nc1ccn([C@@H]2O[C@H](CO)[C@@H](O)[C@H]2O)c(=O)n1; value = 3%
SMILES = CS(=O)(=O)c1ccc(C2=C(c3ccccc3)C(=O)OC2)cc1; value = 3%
SMILES = [C-]#[N+]C(=C\c1ccc(OC)cc1)/C(=C/c1ccc(OC)cc1)[N+]#[C-]; value = 24%
SMILES = CCC(=O)O[C@]1(C(=O)CCl)[C@@H](C)C[C@H]2[C@@H]3CCC4=CC(=O)C=C[C@]4(C)[C@@]3(F)[C@@H](O)C[C@@]21C; value = 3%

Study 4
SMILES: c1ccc(N2CCN(Cc3nc4ccccc4[nH]3)CC2)nc1
Technique: competition with immobilised ligand
Tested at: 1 µM
Measurement: remaining binding
target = EPHB3 (Homo sapiens, UniProt P54753); effect on = cell-free assay; value = 100%
target = HIPK1 (Homo sapiens, UniProt Q86Z02); effect on = binding; value = 99%
target = ZAP70 (Homo sapiens, UniProt P43403); effect on = binding; value = 100%
target = CDKL3 (Homo sapiens, UniProt Q8IVW4); effect on = binding; value = 100%
target = MAK (Homo sapiens, UniProt P20794); effect on = binding; value = 100%
